Published values pooled from the literature.
Parts stem from different laboratories: compare values within a part only.

Study 1 — method: RNAcompete; molecule type: RNA; sample: in vitro; concentration: 20 nM; notes: 7-mer, probes averaged, single round; relative to: mean of 7-mers; reading: higher = stronger binding
Target: PABPC1L2, full length, GST fusion (mouse, UniProt A0ABA7IW68)
Residues (chain): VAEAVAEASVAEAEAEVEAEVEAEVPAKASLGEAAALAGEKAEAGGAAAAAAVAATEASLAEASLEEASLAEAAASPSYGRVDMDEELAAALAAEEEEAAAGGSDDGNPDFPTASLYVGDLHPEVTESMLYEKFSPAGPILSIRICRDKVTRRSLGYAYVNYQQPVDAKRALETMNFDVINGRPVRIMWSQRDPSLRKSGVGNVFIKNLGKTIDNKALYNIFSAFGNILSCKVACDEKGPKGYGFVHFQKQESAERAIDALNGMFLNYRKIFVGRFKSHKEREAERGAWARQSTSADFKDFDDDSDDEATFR
| Strand | 7-mer Z-score |
| --- | --- |
| CAUCUGU | -0.4 |
| GUUCGUA | -0.398 |
| GGAUCGU | -0.209 |
| CUUUAAG | 0.432 |
| GUGACUA | 0.0116 |
| GUCUCAA | 0.0478 |
| GCCAGAU | -0.121 |
| GCCGUUC | -0.396 |

Study 2 — method: RNA Bind-n-Seq; molecule type: RNA; sample: in vitro; concentration: 20 nM; notes: 6-mer, flanks averaged, single round; together with: 150 mM KCl; relative to: input library; reading: higher = stronger binding
Target: TAR DNA-binding protein 43, full length, His tag (TARDBP, Homo sapiens, UniProt Q13148, residues 1-414)
| Strand | 6-mer enrichment (R) |
| --- | --- |
| UGGACC | 0.842 |
| GAUUCA | 0.609 |
| AUAUGA | 0.683 |
| GGCCCC | 0.87 |
| GGCAAU | 1.05 |
| ACAUCC | 0.609 |
| AGAAUC | 0.626 |
| CAUCCA | 0.605 |

Study 3 — method: RNA Bind-n-Seq; molecule type: RNA; sample: in vitro; concentration: 200 nM; notes: whole 134-nt RNA, ends assumed; together with: 150 mM KCl; relative to: input library; reading: higher = stronger binding
Target: Fragile X messenger ribonucleoprotein 1, C-terminal low-complexity region (Fmr1, Mus musculus, UniProt P35922)
Constant ends, left off below: GGGAGUUCUACAGUCCGACGAUC … UGGAAUUCUCGGGUGUCAAGG
| Strand | log2 enrichment |
| --- | --- |
| UGGGCGGCUGCGAGAUGAGAACGGACGACCCUACUCGCCCAGUCAGUAUGCGCUCCAGUACGCCGGGGACGGCAGUGUCCUCCUCAUCCC | 0.389 |
| UCCUGUGCUACACAUCGUAUGUACCGAAUCGGGAAAAAGGGAAAAAGGGAAAAAAAGGGAAAGUAUUAUGUUACGCCGUUCGGAUCUGCA | -0.201 |
| UCAAGUCCUGUGCUACACAUCGUAUGUACCGAAUCGGCCCGGGCCCGGGGCCCGGAAAGUAUUAUGUUACGCCGUUCGGAUCUGCACUUC | -0.552 |
| CAAGUCCUGUGCUACACAUCGUAUGUACCGAAUCGGGAAAGGAAAGGGAAAGGGGAAAGUAUUAUGUUACGCCGUUCGGAUCUGCACUUC | 0.139 |
| UCAAGUCCUGUGCUACACAUCGUAUGUACCGAAUCGGGCCGGCCGGGGCCGGGGAAAGUAUUAUGUUACGCCGUUCGGAUCUGCACUUCC | -0.289 |
| AAGUCCUGUGCUACACAUCGUAUGUACCGAAUCGGGGUGGGGAAAGGGGUUUGGGGAAAGUAUUAUGUUACGCCGUUCGGAUCUGCACUU | 0.996 |
| GCAGGAAGUAAAAACAAAUGGAAAUGCAAAGGAUAGUGGCAGGGGUGGGGGUUGCUAAGGAAAGGGUGGGAUGGGAGUGGGUAAAGAGUU | 0.205 |
| CACAGACAACACGCACCCACACAGACACAGAGGGAAGGGGUUGGGAUGGGGACAGGGUGCACAGCAGGGCGGGGUAAGACCCCAGCCCCU | 1.39 |

Mixed results
| SMILES | cell line | concentration | time | endpoint | value |
| --- | --- | --- | --- | --- | --- |
| O=C1OC2(c3ccc(O)cc3Oc3cc(O)ccc32)c2ccccc21 | A-375 | 100 µM | 36 h | viability | 190% |
